# Measured values from different studies.
# Each line is one published result; not all experiments were run side by side. “And” joins repeats or separate records; there may be more than shown.
# Target: BDNF/NT-3 growth factors receptor (NTRK2, Homo sapiens, UniProt Q16620)
# Chain of UniProt Q16620 (whole entry, looked up): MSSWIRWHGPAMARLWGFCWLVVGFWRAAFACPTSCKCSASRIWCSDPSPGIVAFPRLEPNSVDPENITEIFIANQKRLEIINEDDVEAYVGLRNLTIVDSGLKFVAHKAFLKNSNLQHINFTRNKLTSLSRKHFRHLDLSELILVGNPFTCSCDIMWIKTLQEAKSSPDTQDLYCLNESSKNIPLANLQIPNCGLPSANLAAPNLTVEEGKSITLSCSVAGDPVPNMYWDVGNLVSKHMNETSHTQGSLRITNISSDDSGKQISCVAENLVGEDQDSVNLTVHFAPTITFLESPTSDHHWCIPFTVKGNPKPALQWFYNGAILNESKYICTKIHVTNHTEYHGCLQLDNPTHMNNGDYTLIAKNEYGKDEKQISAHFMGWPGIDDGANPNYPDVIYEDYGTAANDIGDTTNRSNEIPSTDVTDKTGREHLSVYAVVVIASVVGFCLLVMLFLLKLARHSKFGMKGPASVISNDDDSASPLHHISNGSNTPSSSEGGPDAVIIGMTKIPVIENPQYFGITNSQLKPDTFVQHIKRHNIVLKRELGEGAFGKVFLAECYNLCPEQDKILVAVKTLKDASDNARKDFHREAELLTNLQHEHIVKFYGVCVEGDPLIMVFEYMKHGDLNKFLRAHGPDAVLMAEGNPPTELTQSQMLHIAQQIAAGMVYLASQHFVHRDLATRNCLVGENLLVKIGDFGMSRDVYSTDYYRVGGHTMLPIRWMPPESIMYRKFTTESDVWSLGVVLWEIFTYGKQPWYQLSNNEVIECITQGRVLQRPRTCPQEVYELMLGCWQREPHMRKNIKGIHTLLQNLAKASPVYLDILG
SMILES,test,conditions,scale,quantity,result
CNC(=O)C[C@H](Cc1ccc(C#N)cc1)NC(=O)c1cc(-c2ccc(CN[C@H](C)c3ccc(C)cc3)o2)ccc1Cl,"enzyme activity, inhibitor",1 µM,,activity vs control,106%
C=CC(=O)N1CCc2ccc(-n3c(=O)ccc4cnc5ccc(-c6cnn(C)c6)cc5c43)cc21,KINOMEscan,1 µM,relative to: DMSO control,remaining binding,97%
C=CC(=O)Nc1cccc(-c2cnc3[nH]cc(C(=O)NC(C)(C)C)c3n2)c1,kinase activity,0.1 µM,,inhibition,9% and 3%
Nc1ncc2c(n1)-c1c([nH]c3ccc(C4=CCOCC4)cc13)CCC2,"binding, competition with immobilised ligand",1 µM,,remaining binding,64%
CNC1C[S+]2CC[S+]3CC[S+](C1)[Ru-4]321([N]=C=S)[n]2c3ccc(OC)cc3c3c4c(c5cc(F)c[n+]1c5c32)C(=O)NC4=O (stereo not drawn),KinomeScan,0.1 µM,relative to: untreated,remaining binding,100%
O=C(Nc1cc(C(F)(F)F)ccc1F)Nc1ccc(C(=O)Nc2ccc3[nH]ncc3c2)cc1C(F)(F)F,"enzyme activity, inhibitor, FRET",1 µM,,inhibition,27.7%
COCC12C(=O)NC3C4(C(OC)CC1O)C1CC5(O)C(OC)C(O)C(OC(C)=O)(C1C5OC(=O)c1ccccc1)C3(O)C(OC)C24 (stereo not drawn),"kinase activity, inhibitor, ProQinase kinase profiling",25 µM,relative to: control,remaining activity,93% and 94%
O=C(CN1CCN(C(=O)c2ccc(F)cc2)CC1)Nc1cccc(C(=O)Nc2ccc3[nH]ncc3c2)c1,"enzyme activity, inhibitor, FRET",1 µM,,inhibition,9.33%
COc1cc(Nc2nc(C)cc(-c3cnn4nc(OC)ccc34)n2)cc(C(F)(F)F)c1,"binding, competition with immobilised ligand",1 µM,,remaining binding,96%
CC(C)=CC1OC(C)(C)C2C=C3C(=O)C(Cl)=CC(O)C3C3C(O)C4OC4C(=O)C132 (stereo not drawn),"cell-free assay, competition with immobilised ligand",10 µM,,remaining binding,54%
Cc1cc(NC(=O)Nc2cc(C(F)(F)F)ccc2F)ccc1C(=O)Nc1ccc2[nH]ncc2c1,"enzyme activity, inhibitor, FRET",1 µM,,inhibition,22.9%
Cc1cccc(O[C@H]2CCC[C@@H](C(C)CNCc3ccncc3)C2)c1 (relative stereo),cell-free assay,10 µM,,inhibition,-6%
NCc1ccc(-c2cc(=O)c3ccc4[nH]c(C(F)(F)F)nc4c3o2)cc1,"agonist, MTT","concentration not given, added: staurosporine",,antiapoptotic activity,decreased
Cc1ccc(-c2c(/C=C(\C#N)C(=O)NC(C)C)n(CCCO)c3ncnc(N)c23)cc1,"cell-free assay, competition with immobilised ligand",1 µM,,remaining binding,99%
Cc1cnc2nc1Nc1cccc(c1)COC/C=C/COCc1cc(ccc1OCCN1CCOCC1)N2,"binding, competition with immobilised ligand",0.1 µM,,remaining binding,85%

# Excerpt of the above:
SMILES,test,conditions,scale,quantity,result
Cc1cc(NC(=O)Nc2cc(C(F)(F)F)ccc2F)ccc1C(=O)Nc1ccc2[nH]ncc2c1,"enzyme activity, inhibitor, FRET",1 µM,,inhibition,22.9%
